Results from different studies.
Compare with care: the assays were run in different laboratories. Several values in a cell are separate wells, animals, samples, runs or records. Numbers after ± are the reported error.
RPA1 N-terminal domain: Replication protein A 70 kDa DNA-binding subunit, N-terminal domain (RPA1, Homo sapiens, UniProt P27694)
Tumor necrosis factor receptor superfamily member 9: Tumor necrosis factor receptor superfamily member 9 (Homo sapiens, UniProt Q07011)
CD27: CD27 antigen (CD27, Homo sapiens, UniProt P26842)

Chains of the proteins cited; added tags and fusions are not shown. Lines headed by an entry give the natural chain unless they say otherwise; changes in a name come on top. Residues count along the entry.
UniProt Q07011, 24-255 limits assumed: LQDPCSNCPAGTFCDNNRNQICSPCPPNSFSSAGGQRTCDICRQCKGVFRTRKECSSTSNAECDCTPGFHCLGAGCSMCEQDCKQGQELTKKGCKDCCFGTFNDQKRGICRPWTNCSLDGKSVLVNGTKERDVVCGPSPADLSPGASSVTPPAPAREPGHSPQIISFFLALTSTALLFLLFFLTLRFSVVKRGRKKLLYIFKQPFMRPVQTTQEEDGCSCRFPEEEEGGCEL
UniProt Q07011, whole entry, looked up: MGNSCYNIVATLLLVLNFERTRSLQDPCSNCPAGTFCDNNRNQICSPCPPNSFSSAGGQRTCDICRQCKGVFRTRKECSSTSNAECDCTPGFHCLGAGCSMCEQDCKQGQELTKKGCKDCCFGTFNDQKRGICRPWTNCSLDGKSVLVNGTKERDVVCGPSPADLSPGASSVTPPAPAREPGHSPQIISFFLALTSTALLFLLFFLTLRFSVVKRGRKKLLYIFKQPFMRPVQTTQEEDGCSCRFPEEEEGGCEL
UniProt P26842, whole entry, looked up: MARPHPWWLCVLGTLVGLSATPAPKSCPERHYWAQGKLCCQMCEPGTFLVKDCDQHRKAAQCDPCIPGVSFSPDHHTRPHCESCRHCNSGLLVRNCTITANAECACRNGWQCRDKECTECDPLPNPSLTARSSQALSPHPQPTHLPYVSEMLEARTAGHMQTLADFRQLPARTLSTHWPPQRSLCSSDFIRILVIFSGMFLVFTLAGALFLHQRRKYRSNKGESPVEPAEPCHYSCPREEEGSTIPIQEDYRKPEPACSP
UniProt Q8IUN9, whole entry, looked up: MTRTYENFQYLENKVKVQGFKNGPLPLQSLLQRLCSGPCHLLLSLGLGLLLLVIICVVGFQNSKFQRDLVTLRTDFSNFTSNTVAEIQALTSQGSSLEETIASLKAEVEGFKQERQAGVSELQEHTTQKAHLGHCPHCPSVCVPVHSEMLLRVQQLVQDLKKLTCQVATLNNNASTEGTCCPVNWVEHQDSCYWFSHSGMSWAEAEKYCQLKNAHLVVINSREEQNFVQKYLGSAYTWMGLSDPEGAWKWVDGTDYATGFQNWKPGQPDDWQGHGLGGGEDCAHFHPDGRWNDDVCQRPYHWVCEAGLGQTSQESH
UniProt P50552, whole entry, looked up: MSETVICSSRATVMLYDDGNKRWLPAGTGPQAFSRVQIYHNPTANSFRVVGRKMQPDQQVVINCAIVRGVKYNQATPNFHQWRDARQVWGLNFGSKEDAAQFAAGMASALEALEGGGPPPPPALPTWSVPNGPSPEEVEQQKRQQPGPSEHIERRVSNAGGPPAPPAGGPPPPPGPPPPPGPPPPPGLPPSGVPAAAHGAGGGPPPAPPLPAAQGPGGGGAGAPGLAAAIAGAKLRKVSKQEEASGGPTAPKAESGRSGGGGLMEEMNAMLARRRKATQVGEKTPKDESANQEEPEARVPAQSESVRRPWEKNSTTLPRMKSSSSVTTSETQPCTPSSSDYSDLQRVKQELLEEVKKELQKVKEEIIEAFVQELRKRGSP
UniProt Q28309, whole entry: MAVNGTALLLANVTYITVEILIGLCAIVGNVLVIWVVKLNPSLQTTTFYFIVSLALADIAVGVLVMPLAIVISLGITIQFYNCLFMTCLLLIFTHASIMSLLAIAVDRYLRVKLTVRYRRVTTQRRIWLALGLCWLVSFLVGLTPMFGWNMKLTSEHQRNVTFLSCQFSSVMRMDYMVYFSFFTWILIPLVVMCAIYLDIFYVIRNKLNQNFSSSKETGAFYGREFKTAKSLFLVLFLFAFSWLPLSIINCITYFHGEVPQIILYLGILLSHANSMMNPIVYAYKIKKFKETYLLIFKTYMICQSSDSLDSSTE
UniProt Q51714, 1-616: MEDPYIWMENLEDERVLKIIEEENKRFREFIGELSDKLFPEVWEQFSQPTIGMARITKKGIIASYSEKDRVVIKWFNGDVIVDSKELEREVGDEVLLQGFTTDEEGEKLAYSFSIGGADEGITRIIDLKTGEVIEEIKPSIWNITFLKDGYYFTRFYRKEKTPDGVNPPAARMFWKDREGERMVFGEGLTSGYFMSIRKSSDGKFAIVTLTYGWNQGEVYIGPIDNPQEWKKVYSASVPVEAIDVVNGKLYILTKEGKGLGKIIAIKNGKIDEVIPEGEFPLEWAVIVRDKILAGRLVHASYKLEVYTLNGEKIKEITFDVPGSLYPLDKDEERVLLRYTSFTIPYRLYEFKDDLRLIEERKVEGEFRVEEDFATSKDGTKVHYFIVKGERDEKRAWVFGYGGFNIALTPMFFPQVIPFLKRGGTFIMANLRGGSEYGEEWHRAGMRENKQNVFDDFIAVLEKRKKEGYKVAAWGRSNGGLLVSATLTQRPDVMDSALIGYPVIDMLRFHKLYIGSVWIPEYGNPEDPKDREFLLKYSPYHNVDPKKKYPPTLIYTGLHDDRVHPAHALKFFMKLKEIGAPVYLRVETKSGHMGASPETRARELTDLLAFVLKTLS
UniProt Q8VIJ5, whole entry: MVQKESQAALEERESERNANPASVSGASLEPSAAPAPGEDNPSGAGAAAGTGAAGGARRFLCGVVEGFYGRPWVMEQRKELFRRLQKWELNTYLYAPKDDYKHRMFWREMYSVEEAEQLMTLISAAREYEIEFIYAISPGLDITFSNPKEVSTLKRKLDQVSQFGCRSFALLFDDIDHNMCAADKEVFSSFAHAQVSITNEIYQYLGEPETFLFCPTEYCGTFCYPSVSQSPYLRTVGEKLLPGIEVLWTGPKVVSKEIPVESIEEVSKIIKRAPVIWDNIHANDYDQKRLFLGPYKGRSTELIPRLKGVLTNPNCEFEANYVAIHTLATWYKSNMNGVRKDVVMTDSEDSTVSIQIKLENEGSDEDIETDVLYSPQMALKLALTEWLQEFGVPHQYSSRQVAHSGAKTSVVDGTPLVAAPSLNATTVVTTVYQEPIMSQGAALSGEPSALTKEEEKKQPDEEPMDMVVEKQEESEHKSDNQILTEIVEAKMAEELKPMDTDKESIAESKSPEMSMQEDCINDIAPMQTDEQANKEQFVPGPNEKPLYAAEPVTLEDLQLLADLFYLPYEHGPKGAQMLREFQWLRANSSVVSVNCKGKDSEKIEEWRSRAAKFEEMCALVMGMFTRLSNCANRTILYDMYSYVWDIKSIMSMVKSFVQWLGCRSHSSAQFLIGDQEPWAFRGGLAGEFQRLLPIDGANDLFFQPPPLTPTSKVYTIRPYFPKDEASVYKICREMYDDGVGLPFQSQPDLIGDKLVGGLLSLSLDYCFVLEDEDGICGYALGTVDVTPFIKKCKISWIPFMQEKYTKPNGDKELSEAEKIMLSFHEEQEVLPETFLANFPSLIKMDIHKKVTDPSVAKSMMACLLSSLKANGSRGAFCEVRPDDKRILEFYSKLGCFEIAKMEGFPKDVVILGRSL
UniProt P04406, whole entry, looked up: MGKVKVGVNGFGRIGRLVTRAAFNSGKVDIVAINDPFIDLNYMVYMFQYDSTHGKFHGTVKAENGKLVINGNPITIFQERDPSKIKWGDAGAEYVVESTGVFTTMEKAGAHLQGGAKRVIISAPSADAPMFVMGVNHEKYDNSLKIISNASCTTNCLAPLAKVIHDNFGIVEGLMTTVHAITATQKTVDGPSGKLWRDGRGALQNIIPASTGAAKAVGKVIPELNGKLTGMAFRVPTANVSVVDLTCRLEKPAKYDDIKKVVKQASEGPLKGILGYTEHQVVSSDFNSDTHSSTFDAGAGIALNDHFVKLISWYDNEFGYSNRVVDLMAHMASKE
UniProt Q7Z6A9, whole entry, looked up: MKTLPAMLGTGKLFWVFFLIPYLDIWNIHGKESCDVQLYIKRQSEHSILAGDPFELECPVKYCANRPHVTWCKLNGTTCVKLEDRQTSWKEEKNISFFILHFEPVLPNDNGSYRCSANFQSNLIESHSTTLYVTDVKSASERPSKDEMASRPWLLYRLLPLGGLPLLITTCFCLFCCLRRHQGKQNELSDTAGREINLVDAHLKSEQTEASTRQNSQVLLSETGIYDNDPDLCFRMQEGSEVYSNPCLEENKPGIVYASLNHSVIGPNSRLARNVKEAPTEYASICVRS
UniProt O95619, 1-148 limits assumed: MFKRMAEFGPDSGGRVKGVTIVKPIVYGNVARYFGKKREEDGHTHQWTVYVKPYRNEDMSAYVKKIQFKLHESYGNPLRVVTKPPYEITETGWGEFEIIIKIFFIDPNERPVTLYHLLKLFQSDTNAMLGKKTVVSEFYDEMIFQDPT
UniProt P62942, whole entry F37V: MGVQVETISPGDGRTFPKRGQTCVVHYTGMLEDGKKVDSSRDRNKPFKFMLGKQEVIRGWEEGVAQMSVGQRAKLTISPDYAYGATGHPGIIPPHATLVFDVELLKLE
UniProt Q9H7M9, whole entry, looked up: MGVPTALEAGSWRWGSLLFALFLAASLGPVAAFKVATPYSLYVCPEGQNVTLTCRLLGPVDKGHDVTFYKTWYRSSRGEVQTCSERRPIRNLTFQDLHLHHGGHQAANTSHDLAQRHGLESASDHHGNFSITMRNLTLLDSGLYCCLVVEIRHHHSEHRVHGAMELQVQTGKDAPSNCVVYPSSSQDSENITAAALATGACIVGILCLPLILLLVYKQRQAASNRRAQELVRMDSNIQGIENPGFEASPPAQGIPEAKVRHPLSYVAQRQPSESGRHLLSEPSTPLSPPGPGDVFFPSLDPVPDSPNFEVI
UniProt P29317, 596-900 limits assumed: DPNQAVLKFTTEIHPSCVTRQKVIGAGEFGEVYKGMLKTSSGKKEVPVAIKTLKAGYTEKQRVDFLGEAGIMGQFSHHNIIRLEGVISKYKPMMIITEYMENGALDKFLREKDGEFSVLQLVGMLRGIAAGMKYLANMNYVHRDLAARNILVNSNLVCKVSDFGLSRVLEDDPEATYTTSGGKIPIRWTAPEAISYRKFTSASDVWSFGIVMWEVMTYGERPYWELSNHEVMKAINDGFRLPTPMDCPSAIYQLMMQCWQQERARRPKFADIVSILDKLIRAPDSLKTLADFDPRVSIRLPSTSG
UniProt Q06187, whole entry: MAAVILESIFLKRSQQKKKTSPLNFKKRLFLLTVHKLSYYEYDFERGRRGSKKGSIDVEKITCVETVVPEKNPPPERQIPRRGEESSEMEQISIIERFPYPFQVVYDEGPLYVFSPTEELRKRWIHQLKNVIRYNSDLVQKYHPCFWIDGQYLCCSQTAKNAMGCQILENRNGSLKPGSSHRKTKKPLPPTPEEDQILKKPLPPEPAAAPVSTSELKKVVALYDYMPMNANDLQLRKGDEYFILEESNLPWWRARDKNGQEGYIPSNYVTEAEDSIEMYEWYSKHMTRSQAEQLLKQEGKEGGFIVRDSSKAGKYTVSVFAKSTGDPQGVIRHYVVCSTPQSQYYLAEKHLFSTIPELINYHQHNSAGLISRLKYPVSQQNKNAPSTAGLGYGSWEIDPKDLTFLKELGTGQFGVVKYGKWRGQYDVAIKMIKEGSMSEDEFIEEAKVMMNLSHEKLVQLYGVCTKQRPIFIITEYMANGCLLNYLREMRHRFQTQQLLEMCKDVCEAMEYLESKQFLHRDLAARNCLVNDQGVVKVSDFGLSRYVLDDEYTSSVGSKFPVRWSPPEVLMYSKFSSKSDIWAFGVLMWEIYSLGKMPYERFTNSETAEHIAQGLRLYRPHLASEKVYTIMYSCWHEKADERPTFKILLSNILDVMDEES
UniProt Q9Y336, 18-144 C36S limits assumed: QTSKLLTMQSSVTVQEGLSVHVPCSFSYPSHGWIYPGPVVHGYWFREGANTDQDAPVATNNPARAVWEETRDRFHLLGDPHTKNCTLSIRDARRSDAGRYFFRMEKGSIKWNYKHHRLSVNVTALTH
UniProt O14744, whole entry: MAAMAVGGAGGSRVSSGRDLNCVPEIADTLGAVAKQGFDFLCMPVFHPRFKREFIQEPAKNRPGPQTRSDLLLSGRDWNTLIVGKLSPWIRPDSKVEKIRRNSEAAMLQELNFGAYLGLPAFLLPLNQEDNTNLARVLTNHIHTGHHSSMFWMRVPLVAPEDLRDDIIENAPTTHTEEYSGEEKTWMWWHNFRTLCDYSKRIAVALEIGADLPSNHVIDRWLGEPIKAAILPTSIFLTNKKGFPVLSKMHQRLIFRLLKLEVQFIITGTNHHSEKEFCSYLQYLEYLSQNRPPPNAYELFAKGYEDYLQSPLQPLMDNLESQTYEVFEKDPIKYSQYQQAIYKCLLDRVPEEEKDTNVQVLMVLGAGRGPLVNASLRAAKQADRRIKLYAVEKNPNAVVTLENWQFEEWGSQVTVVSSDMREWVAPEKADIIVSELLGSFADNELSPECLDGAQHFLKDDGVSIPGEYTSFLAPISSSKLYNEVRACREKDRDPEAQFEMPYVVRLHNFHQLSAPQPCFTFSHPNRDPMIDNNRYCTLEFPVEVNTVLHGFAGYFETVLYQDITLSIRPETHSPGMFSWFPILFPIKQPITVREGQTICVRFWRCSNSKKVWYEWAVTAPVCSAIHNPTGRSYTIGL
UniProt Q9UGL1, 1-100 limits assumed: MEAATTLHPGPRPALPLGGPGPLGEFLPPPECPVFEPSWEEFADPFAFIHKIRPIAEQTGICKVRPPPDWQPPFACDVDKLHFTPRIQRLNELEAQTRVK
UniProt Q9UGL1, 375-604 limits assumed: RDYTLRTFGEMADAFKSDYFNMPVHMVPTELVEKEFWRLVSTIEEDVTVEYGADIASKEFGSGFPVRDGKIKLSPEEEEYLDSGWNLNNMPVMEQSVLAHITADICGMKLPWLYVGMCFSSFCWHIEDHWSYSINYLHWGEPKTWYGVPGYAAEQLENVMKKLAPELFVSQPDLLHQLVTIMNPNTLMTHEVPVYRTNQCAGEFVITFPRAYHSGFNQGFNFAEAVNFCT

SMILES = Cc1cc(NC(=O)c2ccc(C)c(S(=O)(=O)Nc3ccc(Br)cc3)c2)c(C(=O)O)cc1C; target = RPA1 N-terminal domain; assay = binding, fluorescence polarisation competition; conditions = with: FITC-ATRIP probe; Kd = > 250 µM
SMILES = O=C(NCc1nnc2n1CCN(Cc1cc3ccccc3[nH]1)CC2)C1CCOC1 (stereo not drawn); target = Tumor necrosis factor receptor superfamily member 9; assay = binding, microscale thermophoresis; Kd = 0.69 µM
SMILES = CC(=O)N[C@H]1[C@@H](O[C@H](C)[C@H](N)C(=O)O)O[C@H](CO)[C@H](O)[C@@H]1O[C@@H]1O[C@H](CO)[C@H](O)[C@H](O)[C@H]1O; target = CLEC10A, carbohydrate recognition domain (Homo sapiens, UniProt Q8IUN9); assay = binding, ITC; conditions = 293 K; Kd = 5960 µM
SMILES = NC(=O)c1ccc(-n2cccc2Cc2c(F)cccc2F)cc1N[C@H]1CC[C@H](O)CC1; target = Heat shock protein HSP 90-alpha (HSP90AA1, Homo sapiens, UniProt P07900); assay = fluorescence polarization; conditions = with: FITC-geldanamycin; Kd = > 100 µM
SMILES = Cc1cc(NS(=O)(=O)c2cc(C(=O)Nc3ccccc3C(=O)O)ccc2C)ccc1Cl; target = RPA1 N-terminal domain; assay = binding, fluorescence polarisation competition; conditions = with: FITC-ATRIP probe; Kd = 58 ± 11 µM
SMILES = CC(=O)N[C@@H](Cc1ccccc1Cl)C(=O)N1CCC[C@]12C=C[C@@H]1CC[C@@H](C(=O)N3CCC[C@@H]4C=C[C@H]5CC[C@@H](C(=O)O)N5C(=O)[C@H]43)N1C2=O; target = Vasodilator-stimulated phosphoprotein, EVH1 domain (VASP, Homo sapiens, UniProt P50552); assay = fluorescence titration; conditions = 25 °C; Kd = 1.6 µM
SMILES = Cc1ccc(C(=O)Nc2ccc(Br)cc2C(=O)O)cc1S(=O)(=O)Nc1ccc(Cl)c(Cl)c1; target = RPA1 N-terminal domain; assay = binding, fluorescence polarisation competition; conditions = with: FITC-ATRIP probe; Kd = 8 ± 1.3 µM
SMILES = NS(=O)(=O)c1ccc(Cc2c(-c3ccc(F)c(C4CCCCC4)c3)nn(-c3nc(C(=O)O)cs3)c2CC2CC2)cc1F; target = L-lactate dehydrogenase A chain (LDHA, Homo sapiens, UniProt P00338); assay = binding, SPR; conditions = with: NADH; Kd = 0.0013 µM
SMILES = Cc1cc(=O)[nH]c(-c2cccc(NC(=O)c3ccc(O)cc3F)c2)n1; target = Cystathionine gamma-synthase 1, chloroplastic (CGS1, Arabidopsis thaliana, UniProt P55217); assay = binding, microscale thermophoresis; Kd = 9.28 µM
SMILES = O[C@@H]1[C@H](O)[C@@H]2C[C@@H]2[C@H]1n1cnc2c(NCc3cccc([125I])c3)nc(Cl)nc21; target = Adenosine receptor A3 (Canis lupus familiaris, UniProt Q28309); assay = binding, saturation binding; test system = HEK293 cell membranes; conditions = 2 h, room temperature; Kd = 0.00335 ± 0.00054 µM
SMILES = c1ccc(-c2ccccn2)nc1; target = prolyl oligopeptidase (Pyrococcus furiosus, UniProt Q51714); assay = binding, luminescence lifetime titration; test system = water; conditions = with or without 0.5% acetonitrile, with: wild-type protein 0 to 300 µM; Kd = 37 µM and 36.8 µM
SMILES = CC(=O)Nc1ncc(CN2CC[C@H](Oc3cccc(F)n3)C[C@@H]2C)s1 [isotope labelled]; target = Protein O-GlcNAcase (Rattus norvegicus, UniProt Q8VIJ5); assay = saturation binding; test system = rat cerebellum homogenate; conditions = radiolabelled compound; Kd = 0.0013 ± 0.0004 µM
SMILES = CN1CCN(c2ccc(-c3cccc(CN4CCN(CCNC(=O)CCCCCCCNc5cccc6c5C(=O)N(C5CCC(=O)NC5=O)C6=O)CC4)c3)cc2NC(=O)c2c[nH]c(=O)cc2C(F)(F)F)CC1 (stereo not drawn); target = WD repeat-containing protein 5 (WDR5, Homo sapiens, UniProt P61964); assay = binding, isothermal titration calorimetry; conditions = 25 °C; Kd = 0.125 ± 0.008 µM
SMILES = Cc1ccc(C(=O)Nc2ccccc2C(=O)O)cc1S(=O)(=O)NCc1ccccc1; target = RPA1 N-terminal domain; assay = binding, fluorescence polarisation competition; conditions = with: FITC-ATRIP probe; Kd = > 250 µM
SMILES = N[C@@H](CCSC[C@H]1O[C@@H](n2cnc3c(NCCCCNC(=O)CC(NC(=O)c4ccc(C5(C(F)(F)F)N=N5)cc4)C(=O)NCCCOCCOCCOCCCNC(=S)Nc4ccc5c(c4)C(=O)OC54c5ccc(O)cc5Oc5cc(O)ccc54)ncnc32)[C@H](O)[C@@H]1O)C(=O)O (stereo partly drawn); target = Catechol O-methyltransferase (COMT, Homo sapiens, UniProt P21964); assay = binding, fluorescence anisotropy; Kd = 24.1 ± 2.2 µM
SMILES = Cc1ccc(C(=O)Nc2ccc(C(C)C)cc2C(=O)O)cc1S(=O)(=O)Nc1cccc(Cl)c1; target = RPA1 N-terminal domain; assay = binding, fluorescence polarisation competition; conditions = with: FITC-ATRIP probe; Kd = 7 ± 0.25 µM
SMILES = CC1=C[C@@]2(O)[C@@](O)(OC1)[C@@H](C)[C@@H]1CC[C@H](C)[C@H]1[C@]2(O)C(=O)[C@H](C)CCc1occc1C; target = Glyceraldehyde-3-phosphate dehydrogenase (GAPDH, Homo sapiens, UniProt P04406); assay = ITC; Kd = 3.01 µM
SMILES = O=C(Cc1n[nH]c(=O)c2ccccc12)N1CCCC(c2nc(-c3cccnc3)no2)C1 (stereo not drawn); target = B- and T-lymphocyte attenuator (BTLA, Homo sapiens, UniProt Q7Z6A9); assay = binding, microscale thermophoresis; Kd = 7.19 µM
SMILES = O=C(Nc1ccc(C(=O)N2CC(c3nccs3)C2)s1)[C@@H]1CCCN1; target = YEATS domain-containing protein 4, YEATS domain; dimeric (Homo sapiens, UniProt O95619); assay = ITC; test system = dimeric GST-YEATS domain; Kd = 11.8 µM
SMILES = CC[C@H](C(=O)N1CCCC[C@H]1C(=O)O[C@H](CCc1ccc(OC)c(OC)c1)c1cccc(OCC(=O)OC(C)(C)C)c1)c1cc(OC)c(OC)c(OC)c1; target = Peptidyl-prolyl cis-trans isomerase FKBP1A (FKBP1A, Homo sapiens, UniProt P62942, F37V); assay = binding, isothermal titration calorimetry; Kd = 0.0099 ± 0.0078 µM
SMILES = COc1ccc2c(c1OC)C(=O)OC2c1c(O)n[nH]c1-c1ccccc1 (stereo not drawn); target = V-type immunoglobulin domain-containing suppressor of T-cell activation (VSIR, Homo sapiens, UniProt Q9H7M9); assay = microscale thermophoresis; Kd = 3.25 µM
SMILES = Cc1ccc(N=Nc2ccc(N)nc2N)cc1C; target = DNA repair protein REV1, C-terminal domain (Homo sapiens, UniProt Q9UBZ9); assay = microscale thermophoresis; conditions = cis-trans isomer mixture, with: labelled DNA repair protein REV1 20 nM; Kd = 17 ± 1 µM
SMILES = Cc1ccc(C(=O)Nc2cc(Cl)cc(Cl)c2)cc1Nc1nc(-c2cccnc2)nc2c1cnn2C; target = Ephrin type-A receptor 2 (EPHA2, Homo sapiens, UniProt P29317); assay = binding, microscale thermophoresis; test system = kinase domain; conditions = 25 °C, 5% DMSO; Kd = 0.022 µM
SMILES = CCCCCCCCCCCCCCCCCC(=O)O[C@@H](CN=[N+]=[N-])[C@H](COP(=O)(O)O)OC(=O)CCCCCCCCCCCCCCCCC; target = Protein kinase C alpha type, C2 domain (PRKCA, Homo sapiens, UniProt P17252); assay = PKCα C2 domain binding, surface plasmon resonance; test system = POPC:POPE:PA 40:40:20 vesicles; conditions = pH 7.4, 25 °C, 20 mol% PA, with: 1 mM CaCl2; Kd = 0.64 ± 0.14 µM
SMILES = Nc1ncnc2c1c(-c1ccc(C(=O)Nc3cc(C(F)(F)F)ccn3)cc1)nn2[C@@H]1CCCN(C(=O)C2CC2)C1; target = Tyrosine-protein kinase BTK, non-phosphorylated (BTK, Homo sapiens, UniProt Q06187); assay = TR-FRET binding kinetics; conditions = 37 °C, unphosphorylated enzyme; Kd = 0.0013 µM and ~0.001 µM
SMILES = CN1C(=N)NC(=O)/C1=C/c1cc(Br)c(O)c(Br)c1; target = Transthyretin (TTR, Homo sapiens, UniProt P02766); assay = binding, isothermal titration calorimetry; conditions = second site, two-site model; Kd = 1.8 µM
SMILES = CN(C)c1nc2nonc2nc1N(C)CCc1nc2cc(F)ccc2[nH]1; target = Tumor necrosis factor receptor superfamily member 9; assay = microscale thermophoresis; Kd = 0.42 µM
SMILES = CC(=O)N[C@H]1[C@H](OCCN=[N+]=[N-])O[C@H](CO)[C@@H](O[C@@H]2O[C@H](CO[C@]3(C(=O)O)C[C@H](O)[C@@H](NC(C)=O)[C@H]([C@H](O)[C@H](O)CNS(=O)(=O)c4ccc(-c5csc(C)n5)s4)O3)[C@H](O)[C@H](O)[C@H]2O)[C@@H]1O; target = Sialic acid-binding Ig-like lectin 9, V-set domain (SIGLEC9, Homo sapiens, UniProt Q9Y336, C36S); conditions = 50 µM protein; Kd = 13.9 ± 2.3 µM
SMILES = Cn1c(=O)oc2c(C(=O)Oc3ccc(-c4ncc[nH]4)cc3)cccc21; target = CD28 (Homo sapiens, UniProt P10747); assay = microscale thermophoresis; conditions = 2% DMSO; Kd = 18.2 ± 5.4 µM
SMILES = Nc1ncnc2c1ccn2[C@@H]1O[C@H](COc2ccc3cc(Br)cnc3c2)[C@@H](O)[C@H]1O; target = Protein arginine N-methyltransferase 5, with MEP50 (PRMT5, Homo sapiens, UniProt O14744); assay = binding, surface plasmon resonance; Kd = 0.00328 µM
SMILES = CC(=O)Nc1ccc(S(=O)(=O)N2CCC(CC(=O)NCCCN3CCCCC3)CC2)cc1; target = Hepatitis A virus cellular receptor 2 (Homo sapiens, UniProt Q8TDQ0); assay = microscale thermophoresis; Kd = 1.71 µM
SMILES = Cc1[nH]c2c(C#N)cnn2c(=O)c1C(C)C; target = Lysine-specific demethylase 5B (KDM5B, Homo sapiens, UniProt Q9UGL1); assay = binding, isothermal titration calorimetry; Kd = 0.025 to 0.05 µM
SMILES = CCN(CC)CCn1c(=S)[nH]c2cc(C(=O)NCCc3ccc(S(N)(=O)=O)cc3)ccc2c1=O; target = CD27; assay = binding, microscale thermophoresis; Kd = 11.4 µM
SMILES = Cc1cc(NC(=O)Nc2ccc3nc(N4CCOCC4)cc(C)c3c2)ccc1Br; target = Cyclin-dependent kinase 8, with cyclin C (CDK8, Homo sapiens, UniProt P49336); assay = binding, reporter displacement; Kd = 11.4 µM
SMILES = COc1ccc(CSc2nccc3c2ccn3CC(=O)N2CCC3(CC2)OCCO3)cc1; target = CD27; assay = binding, microscale thermophoresis; Kd = 9.33 µM
SMILES = O=C(NNC(=S)Nc1cccc(C(F)(F)F)c1)c1cccn1-c1ccc(F)cc1; target = Activator of 90 kDa heat shock protein ATPase homolog 1 (AHSA1, Homo sapiens, UniProt O95433); assay = binding, fluorescence quenching; test system = acrylodan-labelled Aha1; Kd = 1.74 µM

Repeated from above:
SMILES = O=C(Nc1ccc(C(=O)N2CC(c3nccs3)C2)s1)[C@@H]1CCCN1; target = YEATS domain-containing protein 4, YEATS domain; dimeric (Homo sapiens, UniProt O95619); assay = ITC; test system = dimeric GST-YEATS domain; Kd = 11.8 µM
SMILES = CC[C@H](C(=O)N1CCCC[C@H]1C(=O)O[C@H](CCc1ccc(OC)c(OC)c1)c1cccc(OCC(=O)OC(C)(C)C)c1)c1cc(OC)c(OC)c(OC)c1; target = Peptidyl-prolyl cis-trans isomerase FKBP1A (FKBP1A, Homo sapiens, UniProt P62942, F37V); assay = binding, isothermal titration calorimetry; Kd = 0.0099 ± 0.0078 µM
SMILES = COc1ccc2c(c1OC)C(=O)OC2c1c(O)n[nH]c1-c1ccccc1 (stereo not drawn); target = V-type immunoglobulin domain-containing suppressor of T-cell activation (VSIR, Homo sapiens, UniProt Q9H7M9); assay = microscale thermophoresis; Kd = 3.25 µM
SMILES = Cc1ccc(N=Nc2ccc(N)nc2N)cc1C; target = DNA repair protein REV1, C-terminal domain (Homo sapiens, UniProt Q9UBZ9); assay = microscale thermophoresis; conditions = cis-trans isomer mixture, with: labelled DNA repair protein REV1 20 nM; Kd = 17 ± 1 µM
SMILES = Cc1ccc(C(=O)Nc2cc(Cl)cc(Cl)c2)cc1Nc1nc(-c2cccnc2)nc2c1cnn2C; target = Ephrin type-A receptor 2 (EPHA2, Homo sapiens, UniProt P29317); assay = binding, microscale thermophoresis; test system = kinase domain; conditions = 25 °C, 5% DMSO; Kd = 0.022 µM
